Measured values from different studies.
Compare with care: the assays were run in different laboratories. Several values in a cell are separate wells, animals, samples, runs or records. ± gives the spread as reported.

For `COc1ccc(C([O-])=CC(=O)c2ccc(C(C)(C)C)cc2)cc1.[Ru+2].c1ccc(-c2ccccn2)nc1.c1ccc(-c2ccccn2)nc1`, the phototoxicity index was 1.8 (HL-60; baseline: dark IC50 over light IC50).
The viability of `CCc1c(-c2ccc3[nH]ncc3c2)cnc(N)c1-c1ccc(O)cc1` is reported as 102% (CHP-212; cell growth or viability, SRB; 0.1953 µM).
`Cc1ncsc1-c1ccc(C(C)NC(=O)C2CC(O)CN2C(=O)C(NC(=O)CCCCCCCCCCN2CCCC(Nc3ncc(Cl)c(Nc4ccccc4S(=O)(=O)C(C)C)n3)C2)C(C)(C)C)cc1` (stereo not shown): “log2 fold change” -2.12 (22Rv1; RNA-seq, measured: ZNF75A mRNA; concentration not given; baseline: DMSO).
Under “luminescence relative to PMA”, `C=C1CC2(C(=O)OC)C=C(C(=O)OC(C)(C)C)C(=O)C1C2` (stereo not shown) is recorded as 0.653 (AP-1 reporter HEK293; AP-1 reporter gene, luciferase reporter; 3 µM, 6 h, together with: PMA 6 ng/mL; baseline: PMA alone).
For `CN1CCCNC(=O)c2cccc(c2)C(=O)NCCCN(C)CCCNc2cccc3c2C(=O)c2cccc(c2C3=O)NCCC1`, “log2 fold change” read 0.535 (SAS; RNA-Seq, measured: SRSF6 mRNA; 1 µM, 6 h; baseline: untreated cells).
For `CNS(=O)(=O)Nc1nccc(Cc2c(C)c3ccc(Oc4ncccc4F)cc3oc2=O)c1F`, the IC50 was over 1 µM (HLE; cell viability; 7 days).
`N#Cc1cccc(/C=C/C(=O)c2ccc(O)cc2)c1` has a fold change of 34.3 (U-87 MG; measured: JHDM1D; concentration not given; baseline: untreated).
`COc1cccc(C(=O)Nc2ccc(Sc3ccc4c(/C=C/c5ccccn5)n[nH]c4c3)cc2)c1` has a GI50 of 1.1 µM (Ba/F3 TEL-VEGFR1; cell growth, CCK-8).
The EC50 of `[Cl-].[Cl-].[Ru+2].c1cc(-c2ccc3cccnc3n2)nc(-c2ccc3cccnc3n2)c1.c1ccc2cc3nc4c5cccnc5c5ncccc5c4nc3cc2c1` is reported as 26.4 µM (A-375; resazurin; together with: light 733 nm, 9 mW, 100 J/cm2).
For `CCN(CC)CC(=O)Nc1cccc(-n2cc(-c3ccc4ccc(-c5cn(-c6cccc(NC(=O)CN(CC)CC)c6)nn5)cc4c3)nn2)c1`, the fold regulation was 1.06 (RCC4; PCR angiogenesis array, measured: NOS3; 5 x IC50, 6 h, normoxia; baseline: untreated).
With `CC(C)c1ccc(N(C)c2ccc3c(c2)OCC[C@H]3CNc2cnccc2C(=O)O)cc1` the IC50 was 0.0224 µM (ECGI10; cell viability, CellTiter-Glo; 7 days).
`Cn1ncc(-c2ccc3c(=O)[nH]nc(CN)c3c2)c1-c1c(F)c(Cl)cc(OC2CC2)c1C#N` has an IC50 of 0.06 µM (EOL1; cell viability, inhibitor, CellTiter-Glo; 120 h, baseline-subtracted).
With `Cc1[nH][n+]([Pd-2]([Cl])([Cl])[n+]2[nH]c(C)c(CSC3CCCCC3)c2C)c(C)c1CSC1CCCCC1` the selectivity index was 1.2 (U-937; cytotoxicity; baseline: IC50 HEK293 over IC50 U-937).
For `CCOc1cncc(-c2ccc(NC(=O)C3(c4ccnc(NS(=O)(=O)C5CC5)n4)CCOCC3)nc2)n1`, the IC50 was 0.107 µM (SR-786; cell growth or viability, ATP luminescence; 72 h).
With `CC(C)(C)c1cc(-c2ccc3cccnc3n2)nc(-c2ccc3cccnc3n2)c1.[Cl-].[Cl-].[Ru+2].c1cnc2c(c1)ccc1cccnc12` the EC50 was 116 ± 4 µM (A-375; photocytotoxicity, resazurin; visible light 400-700 nm, 20 mW, 100 J/cm2).
`C=CC(=O)N1[C@H](c2ccc3c(c2)OCO3)c2[nH]c3ccccc3c2C[C@@H]1C(=O)NC` — result for “mean neuron degeneration”: 43.7% (rat DRG neurons; 0.3704 µM, 48 h, together with: vincristine 40 nM).
`Cn1ncc2cc(-c3cncc(Cl)c3N3CCC4(CCNC4=O)CC3)ccc21` — result for “log2 fold change”: -2.63 (LS174T; gene expression, microarray, measured: TNFRSF12A mRNA; concentration not given, 24 h; baseline: untreated cells).
`COC(=O)c1cc(NC2=NC(=O)C(=Cc3ccc(N(C)C)cc3)S2)ccc1OC(C)=O` has a metabolite level of -1.03 fold change (MCF7; GC-MS, measured: 1,3-propanediol; 1 µM; baseline: DMSO).
Under “cells with decreased ΔΨm”, `CC(=O)[O][Pd][c]1ccccc1-n1nc(C)cc1C.CC(=O)[O][Pd][c]1ccccc1-n1nc(C)cc1C` is recorded as 19.4 ± 1.14% (MDA-MB-231; JC-1 flow cytometry; 25 µM, 24 h).
With `CCCNC(=O)[C@H]1O[C@@H]1C(=O)N[C@H](C(=O)N1CCC[C@H]1C(=O)OCC1=C2C(C)=CC(C)=[N+]2[B-](C)(C)n2c(C)cc(C)c21)[C@@H](C)CC` the EC50 was 27 ± 11.5 µM (MCF-10A; cell viability, MTT; 72 h, dark).
`CC(C)(C)c1cc(-c2ccc3cc4ccccc4nc3n2)nc(-c2ccc3cc4ccccc4nc3n2)c1.[Cl-].[Cl-].[Ru+2].c1ccc2cc3nc4c5cccnc5c5ncccc5c4nc3cc2c1` has an EC50 of 1.97 µM (A-375; photocytotoxicity, resazurin; visible light 400-700 nm, 20 mW, 100 J/cm2).
The SILAC ratio of `O=C(N1CCCC1)n1cc(-c2ccc(-c3ccccc3)cc2)nn1` is reported as 1.07 (mouse T-cells; N-terminal labelling enrichment, measured: S100A6 N-terminal peptides; 1 nM, 6 h, protein median; baseline: DMSO).
For `COc1ccc(NC(=O)c2ccc3[nH]c(-c4ccc(N(C)C)cc4)nc3c2)cn1`, “dead cell to confluence ratio” read 277 and 59.4 and 158 (HCT116; IncuCyte; concentration not given, 16 h).
With `COc1cccc(OC)c1-c1cc(C(=O)NC2(C(=O)O)C3CC4CC(C3)CC2C4)nn1-c1ccc(C(=O)NCCNC(=O)[C@H](CCCCNC(=O)[C@H](CC(C)C)NC(=O)C2OC2C(=O)O)NC(=O)CN2CCN(CC(=O)[O-])CCN(CC(=O)[O-])CCN(CC(=O)[O-])CC2)cc1C(C)C.[177Lu+3]` (mixture of isomers) the adduct formation was 53.8% (HT-29; SDS-PAGE autoradiography; concentration not given, 4 h; baseline: radioactive signal).
For `CCN(C(=O)c1cc(F)ccc1Oc1nncnc1N1CCC2(C1)CN([C@H](CCCN(C)CCOC)C(C)C)C2)C(C)C`, the GI50 was over 10 µM (NCI-H292; cell growth or viability; 72 h).
